Measured values pooled from the literature.
± marks the error that the study gave.
Cell line: HepG2

Compound | effect on | mode | method | time | notes | IC50
C=C1C(=O)[C@@]23CC[C@@H]4C(C)(C)CCC[C@@]4(COC(C)=O)[C@@H]2[C@@H](O)C[C@@H]1C3 (single isomer, unassigned) | cell growth or viability |  | MTT |  |  | 8 µM
C/C(=N\N=C1/NC(=O)CS1)c1c(O)c2ccccc2oc1=O | cell growth |  | MTT | 48 h |  | 97.6 ± 8.2 µM
CC1(C)CC[C@]2(C(=O)O)CC[C@]3(C)C(=CC[C@@H]4[C@@]5(C)CC[C@H](O[C@@H]6OC[C@H](O)[C@H](O)[C@H]6O)[C@@](C)(CO)[C@@H]5CC[C@]43C)[C@@H]2C1 | NF-κB activity | inhibitor | luciferase |  | TNF-stimulated | 7.5 µM
CC(=O)OC[C@H]1O[C@@H](Sc2nnc(-c3cc4ccccc4[nH]3)n2-c2ccccc2)[C@H](OC(C)=O)[C@@H](OC(C)=O)[C@@H]1OC(C)=O | cell growth or viability |  | MTT |  |  | 6.71 µM
Cc1cc(C#N)cc(C)c1Oc1cc(Nc2ccc(C#N)cn2)nc2cnccc12 |  |  |  | 48 h |  | > 127 µM
CCCC/C=N/NC(=O)c1cc2cc(Nc3nccc(-c4cccnc4)n3)ccc2[nH]1 | cell growth or viability |  | MTT | 48 h |  | > 20 µM
COc1ccc(/C=C/C(=O)/C=C/c2cn(-c3ccccc3)nc2C(=O)O)cc1O | cell growth |  |  | 72 h |  | > 25 µM
COc1ccc2nc(Cl)c(-c3nc4cc(Cl)ccc4[nH]3)cc2c1 | cell growth or viability |  | MTT | 48 h |  | 14.1 µM
COc1cccc2cc(C(=O)NNc3nc(-c4ccccc4)cs3)c(=O)oc12 | cell growth or viability |  | SRB | 72 h |  | 116 µM
C=C[C@H](OC(C)=O)c1ccc(OC(C)=O)cc1 | cell growth or viability |  | MTT | 24 h |  | 18 µM
C[C@]12CC[C@@H]3c4ccc(O)cc4CC[C@H]3[C@@H]1CC[C@@]2(O)c1cn(CC(=O)c2ccc(Br)cc2)nn1 | cell growth or viability |  | resazurin | 72 h |  | 20.4 µM
C=CC(OC(C)=O)c1ccc(OC(C)=O)c(OC)c1 (stereo not drawn) | cell growth or viability |  | MTT | 24 h |  | 4.3 µM
O=C(/C=C/c1ccc(O)cc1)OCCCC[P+](c1ccccc1)(c1ccccc1)c1ccccc1 | cell growth or viability |  | SRB | 48 h |  | 15.3 µM
COc1cccc2c1C(=O)c1c(O)c3c(c(O)c1C2=O)CC(O)(C(=O)CO)CC3OC1CC(NC(=O)C[C@H](N)C(=O)O)C(O)C(C)O1 (stereo partly drawn) | cell growth or viability |  | MTT | 48 h |  | < 10 µg/mL
COC(=O)CNc1cc(C[S+]([O-])c2ccc3ccccc3c2)ccc1OC (stereo not drawn) | cell growth or viability |  | MTS | 48 h |  | 4.29 µM
O=C(CCCCCCN1CCN(c2ccc(Nc3ncc(F)c(-c4cn(C5CCCC5)nn4)n3)cc2)CC1)NO | cell growth or viability |  | SRB | 72 h |  | 2.66 µM
O=C(Nc1ccc(F)cc1)c1ccccc1-n1c(=O)[nH]c2ccccc2c1=O | cell growth or viability |  | MTT | 24 h |  | 14.2 µM
COc1ccc(-c2nnc(-c3ccccn3)[nH]2)cc1OC.COc1ccc(-c2nnc(-c3ccccn3)[nH]2)cc1OC.[Cu+2].[O-][Cl+3]([O-])([O-])[O-].[O-][Cl+3]([O-])([O-])[O-] | cell growth or viability |  | MTT | 24 h |  | 91.1 µM
O=C1CS/C(=N\N=C2/C(=O)N(CCn3ncc4c(=O)[nH]cnc43)c3ccc(Cl)cc32)N1 | cell growth or viability |  | SRB | 72 h |  | 5.37 µM
COc1ccc(-c2cc(-c3nnn(-c4ccc(Br)cc4)c3C)nc(N)c2C#N)cc1 | cell growth or viability |  | MTT |  |  | 2.34 µg/mL

Compound | effect on | mode | method | time | notes | IC50
CCNc1cc2c(cc1C)C1(c3cc(C)c(NCC)cc3O2)c2ccccc2C(=O)N1N=Cc1c[c-]c(-c2ccccn2)cc1.Cc1c(C)c(-c2ccc(-c3ccccc3)cc2)[c-](C)c1C.[Cl-].[Ir+3] | cell growth |  | MTT | 24 h |  | 19.4 ± 7.5 µM
O=C(/C=C(O)/C=C/c1cccs1)/C=C/c1cccs1 | cell growth or viability |  | MTT | 72 h |  | > 75 µM
CCN(CC)c1ccc2c(c1)[O][Pt-2]1([Cl])[N+](=C2)CC[NH+]1c1ccccc1 (stereo not drawn) | cell viability |  | MTT | 48 h |  | 27.1 ± 3.53 µM
F[P-](F)(F)(F)(F)F.O=C(CCC(=O)c1ccccc1)NCCN(CC(=O)Nc1ccc(C#CCN(Cc2ccccn2)Cc2ccccn2)cc1)C(=O)CCc1cn(C[c-]2cccc2)nn1.[C-]#[O+].[C-]#[O+].[C-]#[O+].[Fe+2].[Re+].c1cc[cH-]c1 | cell growth or viability |  | resazurin | 48 h |  | > 100 µM
Clc1nc2cc3c(cc2cc1-c1nc2cc(Br)ccc2[nH]1)OCO3 | cell growth or viability |  | MTT | 48 h |  | > 100 µM
N#Cc1c(F)c(Cl)c2nc(SCc3ccccc3)nc(N)c2c1F | cell growth or viability |  | MTT | 96 h |  | 48.9 µM
N#Cc1cccc(-c2ccc(=O)n(Cc3cccc(-c4ncc(OCC5CCN(CC(=O)NCCOCCNc6ccc7c(c6)C(=O)N(C6CCC(=O)NC6=O)C7=O)CC5)cn4)c3)n2)c1 (stereo not drawn) | cell growth or viability |  | CCK-8 | 72 h |  | 1.54 µM
Brc1ccc(C(c2c[nH]c3ccccc23)c2c[nH]c3ccccc23)cc1 | cell growth or viability |  | MTT | 24 h |  | 5.24 µM
C=C1CC(OC(=O)C(C)(O)CCl)C2C(=C)C(=O)OC2C2C1CC(O)C2(O)CCl (stereo not drawn) | cell growth or viability |  |  |  |  | 0.6 µg/mL
COc1cc2c(cc1-c1coc3c(CC=C(C)C)c(OC)c(OC)cc3c1=O)OCO2 | cell growth or viability |  | MTT | 72 h |  | 16 µM
Cc1cc(C=O)cc(C)c1Oc1cc(Nc2ccc(C#N)cc2)nc2cnccc12 |  |  |  | 48 h |  | > 127 µM
N#Cc1cccc(-c2ccc(=O)n(Cc3cccc(-c4ncc(OCC5CCN(CCC(=O)Nc6cccc7c6C(=O)N(C6CCC(=O)NC6=O)C7=O)CC5)cn4)c3)n2)c1 (stereo not drawn) | cell growth or viability |  | CCK-8 | 72 h |  | > 100 µM
CCC1=C(CC)C2=[N+]3C1=Cc1c(CC)c(CC)c4[n]1[Ir-3]31([c]3n(C(C)C)cc[n+]3C(C)C)([c]3n(C(C)C)cc[n+]3C(C)C)[n]3c(c(CC)c(CC)c3=CC3=[N+]1C(=C4)C(CC)=C3CC)=C2.F[P-](F)(F)(F)(F)F | cell growth or viability |  | MTT | 72 h |  | 2.4 µM
Cc1c(C(=O)NNC(=S)Nc2ccc(Cl)cc2)nnn1Cc1nc2ccccc2[nH]1 | cell growth or viability |  | MTT | 48 h |  | 7.68 µM
COc1cc2c(=O)oc3c(OC)c(OC)cc4c(=O)oc(c1OC)c2c34 | cell growth or viability |  | MTT | 48 h |  | 78.9 µM
N#Cc1c(F)c(F)c2nc(SCC3CCCO3)nc(N)c2c1F (stereo not drawn) | cell growth or viability |  | MTT | 96 h |  | 24.1 µM
COc1ccc(NC(=O)c2c(Nc3ccccc3)sc(C(=O)N/N=C/c3ccc(OC)c(OC)c3)c2NC(C)=O)cc1 | cell growth or viability |  | SRB |  |  | 5.1 µM
CCOc1cccc(/C=N/Cc2ccccn2)c1O | cell growth or viability |  | MTT | 48 h |  | 66.7 µM
COc1ccc(-c2ocnc2-c2cc(Br)c(OC)c(OC)c2)cc1OCCCC(=O)NO | cell growth or viability |  | crystal violet | 48 h |  | 0.6 µM
CCOC(=O)CS/C(Nc1ccccc1)=C(\C#N)C(=O)Nc1nnc(NC(=O)c2ccccc2)s1 | cell growth or viability |  | MTT | 48 h |  | 52.9 µM

Compound | effect on | mode | method | time | notes | IC50
Cc1cc(=O)oc2cc(OCC(=O)NCC(=O)NCC(=O)NN)ccc12 | cell growth or viability |  | MTT |  |  | 172 µM
O=C(NN=Cc1ccc(O)cc1)Nc1cc2c(Nc3ccc(F)c(Cl)c3)ncnc2cc1OC1CCOC1 (stereo not drawn) | cell growth or viability |  | MTT | 72 h |  | 0.07 µM
Clc1cc2nc(-c3cc4ccccc4nc3Cl)[nH]c2cc1Cl | cell growth or viability |  | MTT | 48 h |  | 7.59 µM
COc1cc(-c2ccc(C(=O)N/N=C/c3ccc(N(C)C)cc3)c(C)n2)cc(OC)c1OC | cell growth or viability |  | MTT |  |  | 40.1 µM
O=c1cc(-c2ccc(O)c(O)c2)oc2cc(O[C@@H]3O[C@H](CO)[C@@H](O)[C@H](O)[C@H]3O)cc(O)c12 | reactive oxygen species |  | fluorescence |  |  | 174 µg/mL
CCCCSc1nc(N)c2c(F)c(F)c(C#N)c(F)c2n1 | cell growth or viability |  | MTT | 96 h |  | 51.8 µM
CC(=O)OC[C@H]1O[C@@H](Sc2nc3c4cnn(C(=O)CNc5ccc(C)cc5)c4ncn3n2)[C@H](OC(C)=O)[C@@H](OC(C)=O)[C@H]1OC(C)=O | cell growth or viability |  | MTT | 48 h |  | 0.048 µM
Cc1cc2nc(-c3cc4cc5c(cc4nc3Cl)OCO5)[nH]c2cc1C | cell growth or viability |  | MTT | 48 h |  | > 100 µM
CCCc1cc(O)nc(SCCOC(=O)[C@]2(C)CCC[C@]3(C)c4ccc(C(C)C)cc4CCC23)n1 (stereo partly drawn) | cell growth or viability |  | MTT | 48 h |  | 10.4 µM
CC(=O)OC[C@]1(C)CCC[C@]2(C)[C@@H]1CC[C@@]13C[C@@H](C[C@H](O)[C@H]12)[C@H](C)C3=O | cell growth or viability |  | MTT |  |  | > 20 µM
CSC(=N/N=C(\C)c1ccc(S(=O)(=O)N2CCC(C)CC2)cc1)SC | cell growth or viability |  | MTT |  |  | 10.6 µM
Cc1ccc2nc(Cl)c(-c3nc4cc(C)c(C)cc4[nH]3)cc2c1 | cell growth or viability |  | MTT | 48 h |  | > 100 µM
c1ccc2c(NCCNc3ncnc4cc(OCC5CCN(CCNc6ccnc7ccccc67)CC5)ccc34)cccc2c1 | cell growth or viability |  | ATP luminescence | 72 h |  | 2.5 µM
N#Cc1cccc(-c2ccc(=O)n(Cc3cccc(-c4ncc(OCC5CCN(CCCCC(=O)Nc6cccc7c6C(=O)N(C6CCC(=O)NC6=O)C7=O)CC5)cn4)c3)n2)c1 (stereo not drawn) | cell growth or viability |  | CCK-8 | 72 h |  | 0.399 µM
COc1ccc(-c2cc(=O)c3c(O)cc(O[C@@H]4O[C@H](CO)[C@@H](O)[C@H](O)[C@H]4O)cc3o2)cc1OC | cell growth or viability |  | resazurin | 72 h |  | 27.9 µM
Cc1nn(C)c(O)c1-c1nc2cc(Cl)c(Cl)cc2[nH]c1=O | cell growth or viability |  | MTT | 72 h |  | > 50 µM
CCOc1cccc(C(=O)Nc2ccc(-c3nc4ccccc4[nH]3)cc2)c1 | cell growth or viability |  | MTT |  |  | 12.8 µM
CC(C)=CCc1c(O)cc2c(c1O)C(=O)OC2 | cell growth or viability |  | CCK-8 | 24 h |  | > 50 µM
CC(=O)[O-].O.O.O.O.[Mn+2].[O-]c1ccc(Br)cc1C=NCCN1CCOCC1 | cell viability |  | MTT | 72 h |  | 25.3 µg/mL
C[C@@H]1C(=O)CC[C@@H]2[C@]1(C)CC[C@H]1[C@@]2(C)CC[C@@]2(C)[C@@H]3CC(C)(C)CC[C@]3(C)CC[C@]12C | cell growth or viability |  | SRB |  |  | > 100 µM

Some of these lines once more:
Compound | effect on | mode | method | time | notes | IC50
O=C(/C=C(O)/C=C/c1cccs1)/C=C/c1cccs1 | cell growth or viability |  | MTT | 72 h |  | > 75 µM
Cc1c(C(=O)NNC(=S)Nc2ccc(Cl)cc2)nnn1Cc1nc2ccccc2[nH]1 | cell growth or viability |  | MTT | 48 h |  | 7.68 µM
C[C@@H]1C(=O)CC[C@@H]2[C@]1(C)CC[C@H]1[C@@]2(C)CC[C@@]2(C)[C@@H]3CC(C)(C)CC[C@]3(C)CC[C@]12C | cell growth or viability |  | SRB |  |  | > 100 µM
O=C(/C=C/c1ccc(O)cc1)OCCCC[P+](c1ccccc1)(c1ccccc1)c1ccccc1 | cell growth or viability |  | SRB | 48 h |  | 15.3 µM
COc1ccc(/C=C/C(=O)/C=C/c2cn(-c3ccccc3)nc2C(=O)O)cc1O | cell growth |  |  | 72 h |  | > 25 µM
COc1cc2c(=O)oc3c(OC)c(OC)cc4c(=O)oc(c1OC)c2c34 | cell growth or viability |  | MTT | 48 h |  | 78.9 µM
COc1ccc(NC(=O)c2c(Nc3ccccc3)sc(C(=O)N/N=C/c3ccc(OC)c(OC)c3)c2NC(C)=O)cc1 | cell growth or viability |  | SRB |  |  | 5.1 µM
